Measured values pooled from the literature.
Lines come from different studies, so protocols differ. Several values in a cell are separate wells, animals, samples, runs or records. ± gives the spread as reported. Converted amounts (≈) assume the structure as drawn.

Compound	organism	test	system	conditions	how to read	endpoint	value
O=c1[nH]c2nc(-c3ccccc3)sc2c(=O)n1O	Brassica rapa			10 mg/mL, 72 h		root length inhibition	69%
COc1ccc(C[C@H](NC(=O)[C@H](C)NC(=O)CN2CCOCC2)C(=O)N[C@@H](Cc2ccccc2)C(=O)C2(C)CO2)cc1 (stereo in doubt)	Plasmodium falciparum		3D7	concentration not given, 48 h		ring-stage parasites remaining	3 to 4%
c1ccc(CN(CCN(Cc2ccccn2)Cc2ccccn2)Cc2ccccn2)nc1	MRSA, MRSE, Enterococcus faecalis	biofilm eradication, Calgary biofilm device		all strains tested		MBEC	> 2000 µM
CCCc1cc(=O)c2c(o1)C[C@@H](O)C[C@H]2O	Zika virus	viral replication, CCK-8	Vero C1008	10 µM, 96 h		inhibition	12.2 ± 8.98%
CC(=O)NC[C@H]1CN(c2ccc(N3CCOCC3)c(F)c2)C(=O)O1	Enterococcus faecalis		vancomycin-intermediate, 10 isolates	serum 50%		MIC50	4 µg/mL (≈ 11.9 µM)
COC(=O)[C@@H](CCSC)NCc1cc2ccccc2nc1SC	Pseudomonas aeruginosa			64 µg/mL, without pentamidine	reference: control	growth	90.8%
CCOC(=O)c1c(C)nc(NCCCCNc2ccnc3cc(Cl)ccc23)nc1-c1ccccc1	reovirus 1	viral replication	Vero			EC50	> 100 µM
N=C(N)c1ccc(OCCC(CCOc2ccc(C(=N)N)cc2)c2ccccc2)cc1 (centres unmarked)	Escherichia coli	checkerboard	mcr-3 polymyxin-resistant	concentration not given, with: rifampicin		MIC of compound in combination	12.5 µg/mL
CN(C)[C@@H]1C(O)=C(C(N)=O)C(=O)[C@@]2(O)C(O)=C3C(=O)c4c(O)cccc4[C@@](C)(O)[C@H]3C[C@@H]12	Acinetobacter calcoaceticus		150			MBC	8 µg/mL
CCOC(=O)C1=C[C@]2(CC)CCCN3CCc4c(n1c1ccccc41)[C@@H]32	hepatitis B virus	HBsAg secretion, ELISA	HepAD38	5 µM, 0.5% DMSO	reference: vehicle	inhibition	inactive
CCOC(=O)c1c(C)nc(NCCCNc2ccnc3cc(Cl)ccc23)nc1C	reovirus 1	viral replication	Vero			EC50	> 100 µM
CC(=O)NC[C@H]1CN(c2ccc(N3CCOCC3)c(F)c2)C(=O)O1	Staphylococcus aureus	broth microdilution	MRSA NRS123 USA400			MBC	16 µM
CN[C@H](CC(C)C)C(=O)N[C@H]1C(=O)N[C@@H](CC(N)=O)C(=O)N[C@H]2C(=O)N[C@H]3C(=O)N[C@H](C(=O)N[C@H](C(=O)O)c4cc(O)cc(O)c4-c4cc3ccc4O)[C@H](O)c3ccc(c(Cl)c3)Oc3cc2cc(c3O[C@@H]2O[C@H](CO)[C@@H](O)[C@H](O)[C@H]2O[C@H]2C[C@](C)(N)[C@H](O)[C@H](C)O2)Oc2ccc(cc2Cl)[C@H]1O	Streptococcus pyogenes		erythromycin-sensitive, 21 strains			MIC50	0.25 µg/mL (≈ 0.173 µM)
Cc1cc(OC(C)C)ccc1C(=O)C(C)(C)NC(=O)c1sccc1C	Alternaria solani	mycelial growth	PSA medium	20 °C		EC50	0.02 µg/mL
CCCc1nc2[nH]c(=O)n(O)c(=O)c2s1	Brassica rapa			100 mg/mL, 72 h		root length inhibition	98%
Cc1cc(-c2cn[nH]c2-c2cccc(OCc3cccc(C#N)c3)c2)cc(C)n1	Enterobacter cloacae	CLSI broth microdilution	AR-0163			MIC	8 µg/mL (≈ 21 µM)
CC(C)[C@@H]1NC(=O)[C@@H](CCCN)NC(=O)[C@H]([C@@H](C)O)NC(=O)[C@@H](CCCN)NC(=O)[C@H](Cc2ccccc2)NC(=O)[C@@H](Cc2ccccc2)NC1=O	Acanthamoeba castellanii			trophozoites		IC50	> 16 µg/mL
O=c1[nH]c2nc(-c3ccncc3)sc2c(=O)n1O	Brassica rapa			100 mg/mL, 72 h		root length inhibition	73%

Compound	organism	test	system	conditions	how to read	endpoint	value
CC(C)[C@@H]1NC(=O)[C@@H](CCN)NC(=O)[C@H]([C@@H](C)O)NC(=O)[C@@H](CCCN)NC(=O)[C@H](Cc2ccccc2)NC(=O)[C@@H](Cc2ccccc2)NC1=O	Acanthamoeba castellanii			trophozoites		IC90	> 16 µg/mL
Cc1nc2[nH]c(=O)n(O)c(=O)c2s1	Brassica rapa			750 g/ha, 21 days, pre-emergence, glasshouse pot		growth inhibition	6.2%
C=C[C@]1(C)C[C@@H](OC(=O)CS[C@@H]2C[C@H]3CC[C@@H](C2)N3C)[C@]2(C)[C@H](C)CC[C@]3(CCC(=O)[C@H]32)[C@@H](C)[C@@H]1O	Enterococcus faecalis	agar dilution	vancomycin-intermediate	20 isolates		MIC50	> 128 µg/mL
COC(=O)[C@H](Cc1c[nH]c2ccccc12)NCc1cc2ccccc2nc1OC	Pseudomonas aeruginosa			2 µg/mL, with: pentamidine 50 µM	reference: control	growth	100%
O=c1[nH]c2scnc2c(=O)n1O	Brassica rapa			10 mg/mL, 72 h		root length inhibition	24%
CC(C)n1ncc2c(C(=O)NCC3(C)CNC3)cc(C3CC3)nc21	Enterovirus D68	cytopathic effect	RD, US/MO/14-18947	15 nM		cell protection	-0.398% and 1.99% and -0.133%
COCC(=O)N1CCCC(C(=O)NCc2nc(-c3ccccc3)cs2)C1 (racemic)	Plasmodium falciparum		Dd2 bulk culture after selection	concentration not given, intermittent drug pressure, pulse 3		EC50	19 µM
CCc1nc2[nH]c(=O)n(O)c(=O)c2s1	Brassica rapa			100 mg/mL, 72 h		root length inhibition	97%
N=C(N)c1ccc(OCc2ccc(-c3ccccc3)cc2COc2ccc(C(=N)N)cc2)cc1	Escherichia coli	checkerboard	W3110	unit not given, with: rifampicin	lower = stronger synergy	FICI	≤ 0.078
CC(=O)Oc1ccccc1C(=O)Nc1ncc([N+](=O)[O-])s1	Cryptosporidium parvum		HCT-8	12 x EC90, 0 h	reference: DMSO control	parasite number	96.8% and 109% and 93.3% and 101%
Cc1c2c(nn1C)CSCc1cc(n(C)n1)CSc1cc(c3ccccc3c1)OCCCc1c(C(=O)O)n(C)c3c-2c(Cl)ccc13	Staphylococcus aureus	broth microdilution	MRSA isolates			MIC90	12.5 µM (≈ 8.4 µg/mL)
Cc1cc(=O)c2c(o1)C[C@H](O)C[C@H]2O	Zika virus	viral replication, CCK-8	Vero C1008	10 µM, 96 h		inhibition	28.3 ± 3.96%
CN[C@H](CC(C)C)C(=O)N[C@H]1C(=O)N[C@@H](CC(N)=O)C(=O)N[C@H]2C(=O)N[C@H]3C(=O)N[C@H](C(=O)N[C@H](C(=O)O)c4cc(O)cc(O)c4-c4cc3ccc4O)[C@H](O)c3ccc(c(Cl)c3)Oc3cc2cc(c3O[C@@H]2O[C@H](CO)[C@@H](O)[C@H](O)[C@H]2O[C@H]2C[C@](C)(N)[C@H](O)[C@H](C)O2)Oc2ccc(cc2Cl)[C@H]1O	Enterococcus faecalis		intermediate susceptibility	0% serum, 10 isolates		MIC50	2 µg/mL (≈ 1.38 µM)
CCCc1nc2c(=O)n(O)c(=O)[nH]c2s1	Brassica rapa			10 mg/mL, 72 h		root length inhibition	2%
N=C(N)c1ccc(OCc2ccc(Br)cc2COc2ccc(C(=N)N)cc2)cc1	Escherichia coli	checkerboard	mcr-3 polymyxin-resistant	concentration not given, with: rifampicin		MIC of compound in combination	12.5 µg/mL
O=c1[nH]c2ncsc2c(=O)n1O	Brassica rapa			1500 g/ha, 21 days, post-emergence, glasshouse pot		growth inhibition	83.8%
CCOc1ccc2cc(-c3nn(CC4CCN(C)CC4)c4ncnc(N)c34)ccc2c1	Neospora caninum	qPCR	sheep foetuses or lambs, mid-pregnancy infection, foetal brain	concentration not given, treated infected group, negatives set to 0.01		parasite burden	0.01 tachyzoites/mg tissue
